Assay results gathered from unrelated publications.
± marks the error that the study gave.

SMILES | cell line | test | conditions | IC50
CNS(=O)(=O)Nc1nccc(Cc2c(C)c3ccc(Oc4ncccc4F)cc3oc2=O)c1F | HCC2218 | cell viability | 7 days | 0.231 µM
Cc1ccc(-n2cc(CSc3nc4ccccc4n3Cc3cn(-c4ccc(C)cc4)nn3)nn2)cc1 | MDA-MB-231 | cell growth or viability, MTT | – | 5.42 µg/mL
C[C@H](c1ccccc1)N1C(=O)C2=Nc3ccc(Cl)cc3CN2C1=S | healthy human PBMCs | cell viability, resazurin | – | 2.4 ± 0.5 µM
CCn1nc(Cl)c2c1-c1cnc(N)c(c1)O[C@H](C)c1cc(F)ccc1-c1nn(C)cc1C2 | Ba/F3 EML4-ALK variant 1 S1206F | cell viability | – | 0.00128 µM
NC(=O)c1ccc(-c2ccccc2Cl)c2c3c([nH]c12)CCC(N)C3 (centres unmarked) | K562 | cell growth or viability | – | 0.0265 µM
CC(C)(C)c1cnc(CSc2cnc(NC(=O)C3CCN(C(=O)CCCCCCN4Cc5cc6c(cc5C4)C(=O)N(C4CCC(=O)NC4=O)C6=O)CC3)s2)o1 (centres unmarked) | NALM-6 | cell growth or viability, MTT | – | 0.0518 µM
CN1CCC(N[C@@H]2CCc3[nH]c4c(C(N)=O)ccc(-c5ccccc5Cl)c4c3C2)CC1 | NCI-H446 | cell proliferation | 96 h | 0.0038 µM
NC(=S)NN=Cc1ccc([N+](=O)[O-])o1 | CAKI-1 | cell growth or viability, resazurin | – | 21.7 µM
O=C(O)C(CO)NCc1cc(Cl)c(OCc2cccc(-c3ccccc3)c2Br)cc1OCc1cccnc1 (centres unmarked) | HCT-8 | cell growth or viability, MTT | – | > 10 µM
O=C1C2=Nc3ccccc3CN2C(=S)N1[C@H]1CCCc2ccccc21 | healthy human PBMCs | cell viability, resazurin | – | 37.9 ± 1.5 µM
CCC(=CCc1c(O)cc2c(c1O)C(=O)CC(c1ccc(OC)cc1O)O2)CC (centres unmarked) | normal pig cell line | cytotoxicity, MTT | 48 h | 10.6 ± 2.7 µM
CC(C)=CC1OC(C)(C)C2C=C3C(=O)C(Cl)=CC(O)C3C3C(O)C4OC4C(=O)C132 (centres unmarked) | MGC-803 | cell growth or viability, MTS | – | 3.06 µM
Cc1cnc2nc1Nc1cccc(c1)COC/C=C/COCc1cc(ccc1OCCN1CCCCC1)N2 | SET-2 | cell growth or viability, CCK-8 | – | 14.6 µM
Cc1cc(NC(=O)Nc2cc(C(F)(F)F)ccc2F)ccc1C(=O)Nc1ccc2[nH]ncc2c1 | KM12 | cell growth or viability, ATP luminescence | 72 h | > 50 µM
CC(=O)Oc1ccccc1C(=O)[O][Pt]([NH2])([NH2])([Cl])([Cl])[O]C(C)=O | C13* cisplatin-resistant ovarian | cytotoxicity, MTT | 72 h | 0.71 ± 0.1 µM
Cc1ccc([N+](=O)[O-])cc1S(=O)(=O)N(C)/N=C/c1cnc2ccc(Br)cn12 | M14 | cell growth or viability | – | 0.195 µM
Cn1cc(-c2n[nH]c3ccc(NC(=O)c4cccc(NC(=O)Nc5ccc(C(F)(F)F)cc5)c4)cc23)cn1 | KM12 | cell growth or viability, ATP luminescence | 72 h | > 50 µM
O=C(NCc1cc(F)cc(F)c1)[C@@]1(O)CCN(c2ccc3[nH]ccc3c2)C1=O | CXF280 colon tumour | colony formation, soft agar clonogenic | – | > 10 µM

SMILES | cell line | test | conditions | IC50
C[C@@H](c1ccccc1)N1C(=O)C2=Nc3ccccc3CN2C1=S | healthy human PBMCs | cell viability, resazurin | – | 2.9 ± 0.2 µM
CCC(=CCc1c(O)cc2c(c1O)C(=O)CC(c1cc(OC)ccc1O)O2)CC (centres unmarked) | normal pig cell line | cytotoxicity, MTT | 48 h | > 120 µM
COc1c(Cl)cccc1Nc1c(-c2ccncc2C#C[C@@]2(C)CCCN2C(=O)/C=C/CN(C)C)[nH]c2c1C(=O)NCC2 | NCI-H2073 ASV knock-in | cell proliferation, CellTiter-Glo | 72 h, geometric mean | 0.0101 µM
CC(C)c1cccc(C(C)C)c1N1C(=O)C2=Nc3ccccc3CN2C1=S | healthy human PBMCs | cell viability, resazurin | – | 30.5 ± 0.5 µM
O=C(Nc1ccc(C(=O)Nc2ccc3[nH]ncc3c2)c(F)c1)Nc1cc(C(F)(F)F)ccc1F | KM12 | cell growth or viability, ATP luminescence | 72 h | > 50 µM
CC(C)c1ccc(N(C)c2ccc3c(c2)OCC[C@H]3CNc2cnccc2C(=O)O)cc1 | KARPAS-422 | cell growth or viability, ATP luminescence | 7 days | 0.00653 µM
O=C1C2=Nc3ccccc3CN2C(=S)N1c1ccc([N+](=O)[O-])cc1 | healthy human PBMCs | cell viability, resazurin | – | 19.8 ± 4.8 µM
C=CC(=O)N1CCC[C@@H](n2nc(-c3ccc(Oc4ccccc4)cc3)c3c(N)ncnc32)C1 | TMD8, parental | cell viability, CellTiter-Glo | 4 days | < 0.001 µM
Cc1cc(Cl)cc(-c2ccnc3cc(CN4C(=O)C5C(C4=O)C5(C)C)sc23)c1C[C@@H]1CNCCO1 (some centres unmarked) | Capan-1 resistant pool R(mix) | cell viability, SRB | 5 days | 2.54 ± 0.49 µM
CCOc1cncc(-c2ccc(NC(=O)C3(c4ccnc(NS(=O)(=O)C5CC5)n4)CCOCC3)nc2)n1 | SW756 | cell growth or viability, ATP luminescence | 72 h | 0.141 µM
O=C(Nc1ccc(C(=O)Nc2ccc3[nH]ncc3c2)cc1F)Nc1cc(C(F)(F)F)ccc1F | KM12 | cell growth or viability, ATP luminescence | 72 h | 33.4 µM
Oc1ccc(C#Cc2c(O)ccc3c2C(c2ccc(O)cc2)(c2ccc(O)cc2)c2cc(O)ccc2-3)cc1 | MGC-803 | cell growth or viability, MTT | 48 h | 16.1 µM
COc1ccc(C2CC(=O)c3c(cc(O)c(CC=C(C)C)c3O)O2)cc1 (centres unmarked) | normal pig cell line | cytotoxicity, MTT | 48 h | > 120 µM
O=Cc1ccc(-c2ccc(O)cc2)c(C(=C2C=CC(=O)C=C2)c2ccc(O)cc2)c1C#Cc1ccc(O)cc1 | MGC-803 | cell growth or viability, MTT | 48 h | 9.95 µM
C=CC(=O)N1CCCC(n2c(=O)c3ncccc3n(Cc3ccc(Oc4ccccc4)cc3)c2=O)C1 (centres unmarked) | KARPAS-422 | cell growth or viability, MTT | 72 h | 1.5 µM
C=CC(=O)N1CC2C(=O)N(CCN(C)C)c3c(c4cc(Cl)c(-c5c(O)cccc5F)nc4n(-c4c(C)ccnc4C(C)C)c3=O)N2CC1C (centres unmarked) | A-427 | cell growth or viability | – | > 10 µM
CCC(=CCc1c(O)cc2c(c1O)C(=O)CC(c1ccc(O)c(OC)c1)O2)CC (centres unmarked) | normal pig cell line | cytotoxicity, MTT | 48 h | 16.8 ± 3.6 µM

Some of these lines once more:
SMILES | cell line | test | conditions | IC50
O=C1C2=Nc3ccccc3CN2C(=S)N1c1ccc([N+](=O)[O-])cc1 | healthy human PBMCs | cell viability, resazurin | – | 19.8 ± 4.8 µM
C=CC(=O)N1CCC[C@@H](n2nc(-c3ccc(Oc4ccccc4)cc3)c3c(N)ncnc32)C1 | TMD8, parental | cell viability, CellTiter-Glo | 4 days | < 0.001 µM
